Assay results of several laboratories.
Lines come from different studies, so protocols differ. ± gives the spread as reported.
actin G-actin: actin G-actin, pyrene label (Oryctolagus cuniculus, UniProt P68135)
ACTA1 filaments: ACTA1 filaments (UniProt P68135)
B1: sevA 1-117 (Dictyostelium discoideum, UniProt P10733); chain MIKNRKLDITSTNVAGIGTDLDKKCRLDAASTEAQWKGVGQAPGLKIWRIENFKVVPVPESSYGKFYDGDSYIILHTFKEGNSLKHDIHFFLGTFTTQDEAGTAAYKTVELDDFLGG

Molecule	partner	assay	test system	conditions	scale	quantity	result
sevA (Dictyostelium discoideum, UniProt P10733)	actin G-actin	actin polymerization, inhibitor		50 nM, 14 h, capping, added: EGTA	relative to: control, higher = more F-actin	F-actin at steady state	102%
CAPG (UniProt P40121)	ACTA1 (Oryctolagus cuniculus, UniProt P68135)	pyrene fluorescence	Mg-F-actin	1 µM, 18 h		critical concentration shift	0.6 µM
espin residues 339-end, N-terminal His6 (rat)	actin monomer (Oryctolagus cuniculus, UniProt P68135)	3H-adenine nucleotide release		60 min	relative to: control, higher = slower release	reduction in nucleotide release	1.3 fold
BNI1 fragment (Saccharomyces cerevisiae) (sequence not shown)	ACTA1 filaments	pyrene-actin depolymerization		no profilin		Kd	0.95 nM
TLN1 ABS3 (Homo sapiens)	ACTA1 F-actin (Oryctolagus cuniculus, UniProt P68135)	optical trap		no load		longest binding event	< 32 ms
QKKTKKNLKKFLTRRPTLQAVREKGYIKDQVF (Arhgap12 RPEL motif (Mus musculus))	ACTA1 mature (Oryctolagus cuniculus, UniProt P68135)	BLI				Kd	2850 nM
split GFP/TLN1 ABS3 fragment (Homo sapiens)	ACTA1 F-actin (Oryctolagus cuniculus, UniProt P68135)	optical trap		under load		longest binding event	< 800 ms
mcs1 (Ustilago maydis, UniProt Q4P9K9)	ACTA1 F-actin, rhodamine-phalloidin (UniProt P68135)	TIRF microscopy				time bound to F-actin	7.1 ± 5.7 s
cdc12 fragment G1201R/N1202P (Schizosaccharomyces pombe) (sequence not shown)	ACTA1 filaments	pyrene-actin assay		barbed ends, rate followed not shown, added: Mg-ATP-actin		Kd	24.1 nM
FLNA (Homo sapiens, UniProt P21333)	ACTA1 F-actin (Oryctolagus cuniculus, UniProt P68135)	co-sedimentation		two-site fit, apparent		actin per FLNa subunit, low affinity site	10.5 mol/mol
Lmod2 (Mus musculus, UniProt Q3UHZ5)	ACTA1 G-actin, pyrene label (UniProt P68135)	pyrene-actin polymerization nucleation, activator		5 nM, added: G-actin 1.15 µM, pCa	higher = shorter lag	lag time reduction	5 fold
B1 (sevA 1-117)	actin G-actin	actin polymerization, inhibitor		50 nM, 14 h, capping, added: EGTA	relative to: control, higher = more F-actin	F-actin at steady state	97.5%
fus1 fragment (Schizosaccharomyces pombe) (sequence not shown)	ACTA1 filaments	pyrene-actin depolymerization		no profilin		Kd	0.43 nM
GSN M517R (Homo sapiens)	actin, pyrene label (Oryctolagus cuniculus, UniProt P68135)	F-actin severing, fluorimetric pyrene-actin assay		20 °C, without Ca2+, added: GSN 0.25 µM		depolymerization rate	0.78 h⁻¹

Some of these lines once more:
Molecule	partner	assay	test system	conditions	scale	quantity	result
CAPG (UniProt P40121)	ACTA1 (Oryctolagus cuniculus, UniProt P68135)	pyrene fluorescence	Mg-F-actin	1 µM, 18 h		critical concentration shift	0.6 µM
espin residues 339-end, N-terminal His6 (rat)	actin monomer (Oryctolagus cuniculus, UniProt P68135)	3H-adenine nucleotide release		60 min	relative to: control, higher = slower release	reduction in nucleotide release	1.3 fold
